Measurements from different studies.
Each line is one published result; not all experiments were run side by side. ± gives the spread as reported.
Voltage-gated sodium channel: Voltage-gated sodium channel (Musca domestica, UniProt Q25439)
Cnr2: Cannabinoid receptor 2 (Cnr2, Mus musculus, UniProt P47936)
Chain of UniProt P47936 (whole entry, looked up): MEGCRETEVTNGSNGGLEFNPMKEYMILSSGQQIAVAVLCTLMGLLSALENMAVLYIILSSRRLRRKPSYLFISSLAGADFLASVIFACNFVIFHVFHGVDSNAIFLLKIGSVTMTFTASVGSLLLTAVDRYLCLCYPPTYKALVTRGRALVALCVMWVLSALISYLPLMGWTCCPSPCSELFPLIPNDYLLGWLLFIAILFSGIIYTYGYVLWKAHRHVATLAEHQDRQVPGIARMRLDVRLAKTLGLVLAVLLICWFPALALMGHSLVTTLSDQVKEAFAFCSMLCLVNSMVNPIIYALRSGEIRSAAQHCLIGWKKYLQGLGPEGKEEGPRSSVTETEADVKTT
G-protein coupled receptor 39: G-protein coupled receptor 39 (Mus musculus, UniProt Q5U431)
Chain of UniProt Q5U431 (whole entry, looked up): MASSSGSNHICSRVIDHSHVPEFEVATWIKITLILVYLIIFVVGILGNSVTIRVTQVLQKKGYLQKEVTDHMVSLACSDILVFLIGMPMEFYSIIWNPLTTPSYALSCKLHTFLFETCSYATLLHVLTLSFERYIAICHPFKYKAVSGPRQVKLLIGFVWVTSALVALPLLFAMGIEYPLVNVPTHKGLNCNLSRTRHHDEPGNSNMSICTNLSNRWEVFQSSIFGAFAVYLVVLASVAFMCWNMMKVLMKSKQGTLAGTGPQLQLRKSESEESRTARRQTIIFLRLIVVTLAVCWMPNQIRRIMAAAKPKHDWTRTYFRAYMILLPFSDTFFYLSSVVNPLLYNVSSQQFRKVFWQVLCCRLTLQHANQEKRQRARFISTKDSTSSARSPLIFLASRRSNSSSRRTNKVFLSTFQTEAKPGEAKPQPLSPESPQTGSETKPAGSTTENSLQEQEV
Chain of UniProt P32245 (whole entry, looked up): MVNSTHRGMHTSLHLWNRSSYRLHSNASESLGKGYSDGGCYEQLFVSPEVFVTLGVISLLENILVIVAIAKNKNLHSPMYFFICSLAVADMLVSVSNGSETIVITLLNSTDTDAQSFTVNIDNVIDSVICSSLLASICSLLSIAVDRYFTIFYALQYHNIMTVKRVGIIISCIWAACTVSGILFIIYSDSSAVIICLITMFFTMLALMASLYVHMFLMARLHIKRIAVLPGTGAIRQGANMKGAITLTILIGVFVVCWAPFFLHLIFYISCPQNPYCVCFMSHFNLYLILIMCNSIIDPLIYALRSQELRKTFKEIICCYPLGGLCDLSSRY
Chain of UniProt P41143 (whole entry, unmodified, looked up): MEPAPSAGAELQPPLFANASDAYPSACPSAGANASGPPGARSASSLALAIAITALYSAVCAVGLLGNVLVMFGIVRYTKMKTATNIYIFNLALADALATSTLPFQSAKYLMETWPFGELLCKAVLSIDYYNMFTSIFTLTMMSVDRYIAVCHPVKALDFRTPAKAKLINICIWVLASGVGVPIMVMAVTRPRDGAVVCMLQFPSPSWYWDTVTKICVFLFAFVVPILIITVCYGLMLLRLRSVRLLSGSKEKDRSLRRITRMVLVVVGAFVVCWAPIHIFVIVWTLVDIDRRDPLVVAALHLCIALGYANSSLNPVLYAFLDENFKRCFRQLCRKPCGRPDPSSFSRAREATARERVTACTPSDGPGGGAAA
Chain of UniProt Q9UKP6 (whole entry, unmodified, looked up): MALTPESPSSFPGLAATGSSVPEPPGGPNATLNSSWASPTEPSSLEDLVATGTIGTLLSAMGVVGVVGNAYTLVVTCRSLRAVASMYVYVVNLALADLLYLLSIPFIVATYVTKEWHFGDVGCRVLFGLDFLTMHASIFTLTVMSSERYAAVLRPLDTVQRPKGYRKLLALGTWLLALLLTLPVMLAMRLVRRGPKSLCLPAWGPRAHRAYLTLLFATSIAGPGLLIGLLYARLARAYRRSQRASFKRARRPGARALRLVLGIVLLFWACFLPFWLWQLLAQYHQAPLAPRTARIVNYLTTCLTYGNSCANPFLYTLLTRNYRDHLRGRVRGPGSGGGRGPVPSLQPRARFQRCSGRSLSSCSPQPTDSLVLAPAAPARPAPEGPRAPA
Chain of UniProt O88457 (whole entry, looked up): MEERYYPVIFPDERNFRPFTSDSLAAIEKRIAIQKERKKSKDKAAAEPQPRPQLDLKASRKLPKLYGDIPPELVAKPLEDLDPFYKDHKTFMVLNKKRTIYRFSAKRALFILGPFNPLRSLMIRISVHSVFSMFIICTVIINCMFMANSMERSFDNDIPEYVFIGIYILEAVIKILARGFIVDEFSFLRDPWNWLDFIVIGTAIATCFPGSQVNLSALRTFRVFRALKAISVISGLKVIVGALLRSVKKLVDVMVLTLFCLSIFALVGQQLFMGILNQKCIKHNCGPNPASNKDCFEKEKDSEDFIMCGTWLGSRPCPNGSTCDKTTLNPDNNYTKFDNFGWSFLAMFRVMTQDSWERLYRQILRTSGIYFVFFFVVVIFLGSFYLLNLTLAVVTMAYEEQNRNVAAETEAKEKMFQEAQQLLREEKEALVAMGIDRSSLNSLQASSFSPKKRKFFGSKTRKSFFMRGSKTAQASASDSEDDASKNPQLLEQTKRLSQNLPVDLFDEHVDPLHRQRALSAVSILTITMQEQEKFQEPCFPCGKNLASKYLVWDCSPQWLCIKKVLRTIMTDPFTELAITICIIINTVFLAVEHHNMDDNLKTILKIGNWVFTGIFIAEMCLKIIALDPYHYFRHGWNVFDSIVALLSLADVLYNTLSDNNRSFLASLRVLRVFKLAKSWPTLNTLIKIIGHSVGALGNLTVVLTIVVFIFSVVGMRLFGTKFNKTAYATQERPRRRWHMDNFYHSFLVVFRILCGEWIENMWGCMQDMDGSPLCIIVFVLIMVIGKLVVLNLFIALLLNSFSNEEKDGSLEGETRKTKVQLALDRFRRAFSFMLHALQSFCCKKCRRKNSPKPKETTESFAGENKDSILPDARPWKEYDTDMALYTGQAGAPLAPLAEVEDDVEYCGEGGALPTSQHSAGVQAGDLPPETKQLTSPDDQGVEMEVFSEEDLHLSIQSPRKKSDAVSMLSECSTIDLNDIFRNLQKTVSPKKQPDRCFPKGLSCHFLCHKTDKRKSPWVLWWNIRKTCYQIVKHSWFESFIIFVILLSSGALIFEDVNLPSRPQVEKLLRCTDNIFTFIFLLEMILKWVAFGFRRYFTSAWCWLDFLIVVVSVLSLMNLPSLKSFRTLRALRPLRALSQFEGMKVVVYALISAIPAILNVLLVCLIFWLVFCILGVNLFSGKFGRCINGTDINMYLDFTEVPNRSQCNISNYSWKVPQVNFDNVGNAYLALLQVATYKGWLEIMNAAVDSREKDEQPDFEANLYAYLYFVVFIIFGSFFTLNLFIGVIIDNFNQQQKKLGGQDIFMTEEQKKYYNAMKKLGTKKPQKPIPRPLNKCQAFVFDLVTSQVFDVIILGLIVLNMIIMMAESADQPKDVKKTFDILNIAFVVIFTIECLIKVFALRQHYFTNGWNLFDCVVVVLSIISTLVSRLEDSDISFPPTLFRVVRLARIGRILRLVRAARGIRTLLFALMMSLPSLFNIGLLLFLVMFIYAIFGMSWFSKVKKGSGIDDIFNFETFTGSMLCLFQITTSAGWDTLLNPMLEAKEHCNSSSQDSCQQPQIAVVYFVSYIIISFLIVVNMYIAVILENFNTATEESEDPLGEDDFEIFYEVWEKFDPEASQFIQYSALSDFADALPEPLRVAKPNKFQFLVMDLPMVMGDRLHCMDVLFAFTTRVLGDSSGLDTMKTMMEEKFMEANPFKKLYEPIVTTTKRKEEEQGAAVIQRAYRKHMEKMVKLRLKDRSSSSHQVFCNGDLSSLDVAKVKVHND
Chain of UniProt Q704Y3 (whole entry, unmodified, looked up): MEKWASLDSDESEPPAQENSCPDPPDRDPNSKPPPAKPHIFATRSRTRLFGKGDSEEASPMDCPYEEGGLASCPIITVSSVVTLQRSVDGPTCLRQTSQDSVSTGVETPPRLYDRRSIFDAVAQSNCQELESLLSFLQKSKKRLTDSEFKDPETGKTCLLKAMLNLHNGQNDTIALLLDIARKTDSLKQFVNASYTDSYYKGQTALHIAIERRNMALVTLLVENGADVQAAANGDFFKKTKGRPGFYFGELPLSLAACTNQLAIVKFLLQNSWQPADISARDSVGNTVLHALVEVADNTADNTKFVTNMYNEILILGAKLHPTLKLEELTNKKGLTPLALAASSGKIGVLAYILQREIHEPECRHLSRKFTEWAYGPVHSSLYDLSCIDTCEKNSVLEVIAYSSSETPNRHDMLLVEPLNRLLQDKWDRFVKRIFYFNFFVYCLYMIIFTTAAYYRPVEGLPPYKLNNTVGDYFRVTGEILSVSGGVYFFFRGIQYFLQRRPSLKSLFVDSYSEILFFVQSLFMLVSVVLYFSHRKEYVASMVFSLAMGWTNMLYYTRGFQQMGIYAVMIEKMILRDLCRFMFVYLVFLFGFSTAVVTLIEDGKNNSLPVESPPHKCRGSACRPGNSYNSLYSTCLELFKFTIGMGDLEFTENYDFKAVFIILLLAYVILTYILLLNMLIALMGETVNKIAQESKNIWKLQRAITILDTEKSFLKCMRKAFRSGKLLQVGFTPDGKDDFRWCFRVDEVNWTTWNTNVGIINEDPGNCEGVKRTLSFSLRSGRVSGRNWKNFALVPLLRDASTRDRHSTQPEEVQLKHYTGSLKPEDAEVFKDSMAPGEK
Chain of UniProt P35372 (whole entry, looked up): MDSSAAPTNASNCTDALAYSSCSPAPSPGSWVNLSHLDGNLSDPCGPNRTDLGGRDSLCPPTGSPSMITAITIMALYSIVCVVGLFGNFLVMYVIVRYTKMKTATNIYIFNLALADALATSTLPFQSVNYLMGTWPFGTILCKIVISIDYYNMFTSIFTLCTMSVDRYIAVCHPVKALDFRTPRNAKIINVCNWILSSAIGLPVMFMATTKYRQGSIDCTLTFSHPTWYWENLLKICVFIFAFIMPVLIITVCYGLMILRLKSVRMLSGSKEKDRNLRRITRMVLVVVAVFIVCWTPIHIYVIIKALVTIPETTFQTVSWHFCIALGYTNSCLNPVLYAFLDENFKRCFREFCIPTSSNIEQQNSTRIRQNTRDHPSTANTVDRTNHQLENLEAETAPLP

SMILES | target or system | test | test system | setting | endpoint | value
CC1(C)C(C=C(Cl)Cl)C1C(=O)OCc1c(F)ccc(F)c1F (centres unmarked) | Voltage-gated sodium channel | membrane potential, activator, FLIPR | HEK293 |  | EC50 | 4900 nM
O=C(O)CCn1c(=O)oc2cc(Cl)c(Cl)cc21 | HTR2C (Homo sapiens, UniProt P28335) | agonist |  |  | EC50 | > 25100 nM
CCOC(=O)[C@](CC)(CCCSCCOCCOCCNC(=O)c1ccc(-c2c3ccc(=N)c(S(=O)(=O)O)c-3oc3c(S(=O)(=O)O)c(N)ccc23)c(C(=O)O)c1)NC(=O)c1ccc(C2CC2)c(Cc2ccc(F)cc2)n1 | Cnr2 | cAMP, agonist |  |  | EC50 | 30.2 nM
CC(C)C[C@H](NC(=O)OCc1ccccc1)C(=O)N[C@H](C=O)C[C@@H]1CCNC1=O | Replicase polyprotein 1ab, main protease (rep, Human coronavirus NL63, UniProt P0C6X5) | viral replication |  |  | EC50 | > 15000 nM
CCOC(=O)[C@](CC)(CCCSCCOCCOCCNc1ccc([N+](=O)[O-])c2nonc12)NC(=O)c1ccc(C2CC2)c(Cc2ccc(F)cc2)n1 | Cnr2 | cAMP, agonist |  |  | EC50 | 21 nM
CC(CCC(=O)NCC(=O)O)C1CCC2C3C(O)CC4CC(OS(=O)(=O)O)CCC4(C)C3CC(O)C12C (centres unmarked) | G-protein coupled receptor 39 | calcium signal, agonist, fluorescence |  |  | EC50 | > 200000 nM
CCCC[C@H](NC(C)=O)C(=O)N[C@H]1CCC(=O)NCCC[C@@H](C(=O)N[C@@H](C(=O)N2CCC[C@@H]2C(N)=O)C(C)C)NC(=O)[C@H](Cc2c[nH]c3ccccc23)NC(=O)[C@H](CCCNC(=N)N)NC(=O)[C@@H](Cc2ccc(F)cc2)NC(=O)[C@H](Cc2c[nH]cn2)NC1=O | MC4R (Homo sapiens, UniProt P32245) | cAMP, agonist |  |  | EC50 | 0.042 nM
CC1(C)C(C=C(Cl)Cl)C1C(=O)OCc1c(F)c(F)c(F)c(F)c1F (centres unmarked) | Voltage-gated sodium channel | membrane potential, activator, FLIPR | HEK293 |  | EC50 | 741 nM
Cc1cc(O)cc(C)c1C[C@H](N)C(=O)N[C@H](CCCNC(=N)N)C(=O)N[C@@H](Cc1ccccc1)C(=O)N(C)CC(=O)N(C)Cc1cc(C(F)(F)F)cc(C(F)(F)F)c1 | OPRD1 (Homo sapiens, UniProt P41143, D128A) | agonist |  |  | EC50 | > 21000 nM
CN(C)[C@H](CNC(=O)/C=C/c1cccc2ccccc12)Cc1ccc(O)cc1 | Mu-type opioid receptor, with GoA (OPRM1, Homo sapiens, UniProt P35372) | receptor activation, agonist |  |  | EC50 | 8.5 ± 3.6 nM
Cc1ccc(C)c(OCCn2cc(C(=O)O)c3ccccc32)c1 | CDC42 (Homo sapiens, UniProt P60953, Q61L) | GTP binding, activator, flow cytometry bead |  | EDTA buffer, together with: 100 nM BODIPY-GTP | EC50 | 355 nM
CC(CCC(=O)O)C1CCC2C3C(O)CC4CC(OS(=O)(=O)O)CCC4(C)C3CC(O)C12C (centres unmarked) | G-protein coupled receptor 39 | calcium signal, agonist, fluorescence |  |  | EC50 | > 200000 nM
COC1C2(O)C(=O)N3C=CC(C)(C)c4[nH]c5ccccc5c4C=C3C(=O)N2C23C(C)C(C)(C)N2c2ccccc2C13O (centres unmarked) | uncharacterized protein (Ixodes scapularis, UniProt A0A0N9E2I2) | ion current, agonist, two-electrode voltage clamp | Xenopus oocytes | holding potential -100 mV | EC50 | 3700 nM
CC(C)[C@H](NC(=O)[C@@H]1CSSC(C)(C)[C@H](NC(=O)[C@@H](N)CC(=O)O)C(=O)N[C@@H](Cc2ccccc2)C(=O)N[C@@H](Cc2c[nH]c3ccccc23)C(=O)N[C@@H](CCCCN)C(=O)N[C@@H](Cc2ccc(O)cc2)C(=O)N1)C(=O)O | UTS2R (Homo sapiens, UniProt Q9UKP6, L156A) | IP1 accumulation, agonist, HTRF | HEK293T cells | 1 h, 37 °C | EC50 | 2.51 nM
CCCCC/C=C\C/C=C\C/C=C\C/C=C\CCCC(=O)NCCc1ccc(O)c(O)c1 | Trpv1 (Mus musculus, UniProt Q704Y3, E571S) | ion current, agonist, whole-cell patch clamp |  | 24 °C, E571S, +80 mV | EC50 | 120 ± 30 nM
CCN(Cc1ccccc1)C(=O)CCc1nc(CN2CCN(C(=O)Cc3ccc(OC)c(OC)c3)CC2)no1 | Sodium channel protein type 11 subunit alpha (Scn11a, Rattus norvegicus, UniProt O88457) | activation V1/2 shift, activator, whole-cell patch clamp | rat DRG neurons, NaV1.9 current |  | EC50 | 162 nM
O=C1NC2(CC2)COc2ncc(F)cc2[C@H]2COCCN2c2ccn3ncc1c3n2 |  |  | Sprague-Dawley rat, male, heart | oral, 10 mg/kg/day, 4 weeks, end of treatment | organ-to-body weight ratio | 0.398 ± 0.065%

For quick reference, copied from above:
SMILES | target or system | test | test system | setting | endpoint | value
CCCCC/C=C\C/C=C\C/C=C\C/C=C\CCCC(=O)NCCc1ccc(O)c(O)c1 | Trpv1 (Mus musculus, UniProt Q704Y3, E571S) | ion current, agonist, whole-cell patch clamp |  | 24 °C, E571S, +80 mV | EC50 | 120 ± 30 nM
CC(C)C[C@H](NC(=O)OCc1ccccc1)C(=O)N[C@H](C=O)C[C@@H]1CCNC1=O | Replicase polyprotein 1ab, main protease (rep, Human coronavirus NL63, UniProt P0C6X5) | viral replication |  |  | EC50 | > 15000 nM
CC(C)[C@H](NC(=O)[C@@H]1CSSC(C)(C)[C@H](NC(=O)[C@@H](N)CC(=O)O)C(=O)N[C@@H](Cc2ccccc2)C(=O)N[C@@H](Cc2c[nH]c3ccccc23)C(=O)N[C@@H](CCCCN)C(=O)N[C@@H](Cc2ccc(O)cc2)C(=O)N1)C(=O)O | UTS2R (Homo sapiens, UniProt Q9UKP6, L156A) | IP1 accumulation, agonist, HTRF | HEK293T cells | 1 h, 37 °C | EC50 | 2.51 nM
